Published values collected from several papers.
Parts stem from different laboratories: compare values within a part only. “And” joins repeats or separate records; there may be more than shown.

Series 1
Target: Sal-like protein 4, full length isoform A (SALL4, Homo sapiens, UniProt Q9UJQ4, residues 1-1053)
Sequence of UniProt Q9UJQ4 (whole entry, looked up): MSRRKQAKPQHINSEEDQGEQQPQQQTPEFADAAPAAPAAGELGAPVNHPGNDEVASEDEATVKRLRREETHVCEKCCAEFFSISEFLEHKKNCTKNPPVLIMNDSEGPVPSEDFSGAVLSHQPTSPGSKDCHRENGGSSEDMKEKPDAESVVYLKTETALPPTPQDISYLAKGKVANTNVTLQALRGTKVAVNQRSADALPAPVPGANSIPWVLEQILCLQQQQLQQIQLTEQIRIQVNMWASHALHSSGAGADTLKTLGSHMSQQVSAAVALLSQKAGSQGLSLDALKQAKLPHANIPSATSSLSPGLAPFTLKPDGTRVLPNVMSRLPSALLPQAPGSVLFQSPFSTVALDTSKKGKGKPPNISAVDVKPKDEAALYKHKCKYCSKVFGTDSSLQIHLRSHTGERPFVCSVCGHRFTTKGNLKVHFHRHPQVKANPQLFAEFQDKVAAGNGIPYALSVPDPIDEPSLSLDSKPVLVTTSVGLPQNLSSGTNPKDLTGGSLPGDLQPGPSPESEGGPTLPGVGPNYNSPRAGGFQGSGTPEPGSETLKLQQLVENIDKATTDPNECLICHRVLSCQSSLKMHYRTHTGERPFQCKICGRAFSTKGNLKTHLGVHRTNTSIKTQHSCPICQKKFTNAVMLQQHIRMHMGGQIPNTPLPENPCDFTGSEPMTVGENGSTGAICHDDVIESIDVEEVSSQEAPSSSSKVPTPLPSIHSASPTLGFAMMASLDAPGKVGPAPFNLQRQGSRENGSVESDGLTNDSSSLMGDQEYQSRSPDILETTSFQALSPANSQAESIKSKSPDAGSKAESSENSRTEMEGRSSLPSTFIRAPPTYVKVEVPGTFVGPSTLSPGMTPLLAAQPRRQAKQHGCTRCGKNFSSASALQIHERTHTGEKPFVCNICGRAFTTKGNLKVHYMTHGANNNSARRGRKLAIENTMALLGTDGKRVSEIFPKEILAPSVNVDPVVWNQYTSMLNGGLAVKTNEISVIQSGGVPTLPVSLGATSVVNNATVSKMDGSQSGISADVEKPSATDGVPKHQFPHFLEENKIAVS
Method: universal PBM
Molecule type: double-stranded DNA, one strand shown
Medium: in vitro
Concentration: 600 nM
Notes: 8-mer, flanks averaged, mean of replicates
Reading: higher = stronger binding
| Oligonucleotide | E-score |
| --- | --- |
| TCCGCTCA | -0.19 |
| CAACGTGC | -0.12 |
| GACTACCC | -0.238 |
| CTAGTAAG | 0.115 |
| AAGCTCAC | -0.196 |
| CCGCTAGG | -0.235 |
| ACCGCGAG | -0.29 |
| CGTCACTA | -0.0412 |

Series 2
Organism: SARS-CoV-2
Effect on: cytopathic effect
Cell line: Vero E6
Concentration: 10 µM
| Compound | inhibition |
| --- | --- |
| O=C(O)[C@@H](S)[C@@H](S)C(=O)O | 6.5% and 0.36% |
| CC(C)N(CCC(=O)c1ccc2ccccc2c1)Cc1ccccc1 | -25.9% |
| CC(C)Nc1cccnc1N1CCN(C(=O)c2cc3cc(NS(C)(=O)=O)ccc3[nH]2)CC1.CS(=O)(=O)O | 2.9% |

Series 3
Target: RNA binding protein fox-1 homolog 2, RRM domain, GST-SBP tag (RBFOX2, Homo sapiens, UniProt O43251-10, residues 100-194)
Method: RNA Bind-n-Seq
Molecule type: RNA
Medium: in vitro
Concentration: 365 nM
Notes: natural RNA segment, single round, ends assumed
Relative to: no-protein control
Reading: higher = stronger binding
Shared flanks, not repeated: GGGAGUUCUACAGUCCGACGAUC … UGGAAUUCUCGGGUGCCAA
Target sequence (chain): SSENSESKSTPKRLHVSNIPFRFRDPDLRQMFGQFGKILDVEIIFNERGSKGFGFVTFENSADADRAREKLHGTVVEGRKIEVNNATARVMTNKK
| Oligonucleotide | RBNS enrichment (R) |
| --- | --- |
| GACAUAAACUGCGAUAGCUUCAGCUUGCACUGUGGAUUUUCUGUAUAGAAUAUAUAAAACAUAACUUCAAGCUUAUGUCUUCUUUUUAAAACAUCUGAAGUAUGGGACGC | 0.446 |
| UGCAGAGCUUAGAGGACUGACUGCAUCUUGUUAGGGAAGCAUCUUUGAGAUGCAGAAUUCAUCUUUUUUGGAAUAUUUCCAUGGUGGAGCUCAGUCAUCACACUUCAAGA | 0.584 |
| CUGCCUAAGUGGCUGCUGACUGAUGUUGAGGGAACAGACAGGAGAAAUGCAUCCAUUCCUCAGGGACAGAGACACCUGCACCUCCCCCCACUGCAGGCCCCGCUUGUCCA | 0.928 |
| CAGCAGCUGUGGCCAGGAGGAAGCAGGUUGAUUUAGAGAGGGCCCUUGGGACCUGGUUUGGGUGAGGGACCACCAGGGAGCCCAUGCUCUAUGGCUCCCUUCCCUUCUUA | 0.597 |
| CUGCCAUGCAAUUGAUAUAGUAAAUCGACUAGAAAAUUAGUAUGCCACUUAAUUAAGAUAAAAAUGCUUAGUUAUUUAUGUUAGUAUCUAGCUUUUAAAGAACUACAUGU | 0.437 |
| GGUGGGGCUUGUUUCCUGAAACCAUGAUGUACUUUUUCAUACAUGAGUCUGUCCAGAGUGCUUGCUACCGUGUUCGGAGUCUCGCUGCCUCCCUCCCGCGGGAGGUUUCU | 0.405 |
| UAAGGAGUCCCAGCCCUUUCUCUGAUGCCACCACCUGAACCCUGCUCCCUCGUGGGCCAGUGAAAAUAGACUGUAGGUCCUCAGAGCCUUCAGAGAUGAUCCAGCCCAAA | 0.337 |
| CUCUCACCUGCUUGGUUGCAAGGCUCAUAUUUUUUUGUACCUUUCCUAUAGAUUCUGUAGCAUUUGAGUGUGGCAAUAUUUUAAUUGUGUAUAGAUUUCUAAGAACCAAC | 0.364 |

Series 4
Target: Interferon regulatory factor 5, full length, phosphomimetic (IRF5, Homo sapiens, UniProt Q13568-2, residues 1-514, S451D/S453D/S456D/S462D)
Method: protein-binding microarray
Molecule type: double-stranded DNA, one strand shown
Medium: in vitro
Concentration: 940 nM top
Notes: 60-bp whole probe
Added: salmon DNA 0.4 mg/ml
Relative to: random background probes
Reading: higher = stronger binding
Shared flanks, not repeated: GCCTAGCAC … GTCTTGATTCGCTTGACGCTGCTG
| Oligonucleotide | fitted relative affinity [z-score] |
| --- | --- |
| GACGGTACCCTTCTCCTGACGTGCTAG | 0.0923 |
| GACGGTTTCAGTTTCGAGACGTGCTAG | 7.5 |
| GACGGAATCGGGTATCGGGACGTGCTA | 0.783 |
| GACGATATCGGGCTTCGAGACGTGCTA | -0.162 |
| TCATGTTTAAGAATGTTACTGTGCTAG | 0.163 |
| TCAATTTTTTTTCTAACACTGTGCTAG | 1.31 |
| TTAGGACTGGGACTTGGTTAGTGCTAG | -0.338 |
| GCCGAACTGAGTTTCGAGACGTGCTAG | 4.49 |

Series 5
Target: Replicase polyprotein 1ab, nsp13 helicase (rep, Severe acute respiratory syndrome coronavirus 2, UniProt P0DTD1)
Action: inhibitor
Concentration: 20 µM
| Structure (SMILES) | inhibition |
| --- | --- |
| CCOP(=S)(OCC)Oc1cc(C)nc(C(C)C)n1 | 11.3% |
| CC(=O)OCC(=O)[C@@]12N=C(C)O[C@@H]1C[C@H]1[C@@H]3CCC4=CC(=O)C=C[C@]4(C)[C@H]3[C@@H](O)C[C@@]12C | 9.44% |
| COc1cc(N2CCC(N3CCN(C)CC3)CC2)ccc1Nc1ncc(Cl)c(Nc2ccccc2S(=O)(=O)C(C)C)n1 | 8.48% |
| Cc1cc(CC(=O)O)n(C)c1C(=O)c1ccc(Cl)cc1 | 0.18% |
| CC(=O)O[C@H]1Cc2ccccc2N(C(N)=O)c2ccccc21 | 2.03% |
| O=c1ccc2[nH]cc(C3=CCNCC3)c2[nH]1 | 4.02% |
| Cc1cc(CN2CCN(c3c(Br)cnc4nc(-c5ccc(N6CCN(C)CC6)cc5)[nH]c34)CC2)no1 | 2.95% |
| Cc1ccc(/N=C/N(C)/C=N/c2ccc(C)cc2C)c(C)c1 | 2.59% |
| CC(C)(C)c1ccc2cc(C#N)c(C#N)cc2c1 | 6.19% |
| Cc1cc(Nc2ccc(NC(=O)c3ccc(Nc4ccnc5ccccc45)cc3)cc2)nc(N)n1 | 10.9% |
| CCCC(=O)O[C@]1(C(=O)CO)CC[C@H]2[C@@H]3CCC4=CC(=O)CC[C@]4(C)[C@H]3[C@@H](O)C[C@@]21C | 10.4% |
| Cc1cc(S(=O)(=O)O)c2c(C)ccc(C(C)C)cc1-2 | 6.53% |
| CNCCC(Oc1ccccc1OC)c1ccccc1 (stereo not shown) | 2.2% |
| COCCOc1cnc2ccn([C@H](C)c3nnc4c(F)cc(-c5cnn(C)c5)cn34)c(=O)c2c1 | 13.2% |
| CCCCn1c(-c2ccccc2)nc(-c2ccccc2)c1CN(Cc1ccc2c(c1)OCO2)Cc1ccc2c(c1)OCO2 | 2.98% |
| O=C1N(c2ccccc2)c2ccccc2C1(Cc1ccncc1)Cc1ccncc1 | 1.17% |
| Cc1cc(C)c(S(=O)(=O)n2cc(C)cc2C)c(C)c1 | -2.51% |
| N#Cc1cccc(C(=O)Nc2cc(-c3ccccc3)nn2-c2ccccc2)c1 | 1.54% |
| O=C1C(O)=C([C@H]2CC[C@H](c3ccc(Cl)cc3)CC2)C(=O)c2ccccc21 | 8.23% |
| Cc1onc(-c2ccccc2Cl)c1C(=O)N[C@@H]1C(=O)N2[C@@H]1SC(C)(C)[C@@H]2C(=O)O | 0.69% |
| Cc1c(Cl)cccc1S(=O)(=O)Nc1nc(NCCc2ccccc2)nc2c1CN(Cc1ccccc1)CC2 | 4.2% |
| Nc1nc(F)nc2c1ncn2[C@@H]1O[C@H](COP(=O)(O)O)[C@@H](O)[C@@H]1O | 2.71% |
| Cc1cc(/C=C/C#N)cc(C)c1Nc1ccnc(Nc2ccc(C#N)cc2)n1 | 5.42% |
| COc1ccc2c(c1)CN(C)CC2c1ccc(Cl)c(Cl)c1 (stereo not shown) | -1.02% |
| Cc1cc(NC(=O)C(c2ccccc2)N2CCCc3ccccc32)no1 (stereo not shown) | 0.94% |

For quick reference, copied from above (series 3):
| Oligonucleotide | RBNS enrichment (R) |
| --- | --- |
| GACAUAAACUGCGAUAGCUUCAGCUUGCACUGUGGAUUUUCUGUAUAGAAUAUAUAAAACAUAACUUCAAGCUUAUGUCUUCUUUUUAAAACAUCUGAAGUAUGGGACGC | 0.446 |
| GGUGGGGCUUGUUUCCUGAAACCAUGAUGUACUUUUUCAUACAUGAGUCUGUCCAGAGUGCUUGCUACCGUGUUCGGAGUCUCGCUGCCUCCCUCCCGCGGGAGGUUUCU | 0.405 |
| CUCUCACCUGCUUGGUUGCAAGGCUCAUAUUUUUUUGUACCUUUCCUAUAGAUUCUGUAGCAUUUGAGUGUGGCAAUAUUUUAAUUGUGUAUAGAUUUCUAAGAACCAAC | 0.364 |
| CUGCCUAAGUGGCUGCUGACUGAUGUUGAGGGAACAGACAGGAGAAAUGCAUCCAUUCCUCAGGGACAGAGACACCUGCACCUCCCCCCACUGCAGGCCCCGCUUGUCCA | 0.928 |
| CUGCCAUGCAAUUGAUAUAGUAAAUCGACUAGAAAAUUAGUAUGCCACUUAAUUAAGAUAAAAAUGCUUAGUUAUUUAUGUUAGUAUCUAGCUUUUAAAGAACUACAUGU | 0.437 |
| CAGCAGCUGUGGCCAGGAGGAAGCAGGUUGAUUUAGAGAGGGCCCUUGGGACCUGGUUUGGGUGAGGGACCACCAGGGAGCCCAUGCUCUAUGGCUCCCUUCCCUUCUUA | 0.597 |
